Experimental data from different studies.
Protocols differ between the studies behind these lines. ± gives the spread as reported. In brackets after ≈: the same amount, converted by molar mass.
Organism: Trypanosoma brucei

CN(C(=O)Cc1ccc(Cl)c(Cl)c1)C(CN1CCCC1)c1ccccc1 (stereo in doubt) — EC50 (parasite growth; 72 h): 0.88 µM
O=S(=O)(NCc1csc(-c2ccccc2)n1)c1ccc2ccccc2c1 — EC50 (parasite growth): 19 µM
CC(=O)N[C@@H]1[C@@H](OC(C)=O)[C@H](OC(C)=O)[C@@H](COC(C)=O)O[C@H]1[Se][Se][C@@H]1O[C@H](COC(C)=O)[C@@H](OC(C)=O)[C@H](OC(C)=O)[C@H]1NC(C)=O — viability (parasite growth, flow cytometry; 5 µM, 24 h): 63.3%
CC(C)=CCNCCOC1C2CC3CC(C2)CC1C3 (centres unmarked) — IC50 (bloodstream form; 72 h): 1.5 ± 0.1 µg/mL (≈ 5.69 µM)
OC[C@H]1O[C@@H]([Se][Se][C@@H]2O[C@H](CO)[C@@H](O)[C@H](O)[C@H]2O)[C@H](O)[C@@H](O)[C@@H]1O — viability (parasite growth, flow cytometry; 5 µM, 24 h): 57.1%
O=c1c2ccccc2[se]n1-c1ccccc1 — EC50 (cell viability, flow cytometry, PI; bloodstream form; 24 h): 9 µM
CC(C)(C)N(C(=O)Cc1ccc(Cl)c(Cl)c1)[C@@H]1CCCC[C@H]1N1CCCC1 — EC50 (parasite growth): 11 µM
C[C@H](Nc1c(-c2c(F)cc(OCCCN(C)C)cc2F)c(Cl)nc2ncnn12)C(F)(F)F — EC50 (parasite growth, SYBR Green; 72 h): 0.146 µM
CCn1nc(-c2cccs2)nc2c(=O)n(C)c(=O)nc1-2 — EC50 (parasite growth, resazurin; 73 h): 1.43 µM
CN(C(=O)Cc1ccc(Cl)c(Cl)c1)C1COCC1N1CCCC1 (centres unmarked) — EC50 (parasite growth): 16.6 µM
CC(=O)OC[C@H]1O[C@@H]([Se][Se][C@@H]2O[C@H](COC(C)=O)[C@H](OC(C)=O)[C@H](OC(C)=O)[C@H]2OC(C)=O)[C@H](OC(C)=O)[C@@H](OC(C)=O)[C@H]1OC(C)=O — viability (parasite growth, flow cytometry; 5 µM, 24 h): 3.3%
COC(=O)c1[nH]c(C(=O)OC)c2c1c1c3cc(Cl)ccc3[nH]c1c1[nH]c3ccc(Cl)cc3c12 — selectivity ratio (Hep G2; 72 h; reference: Hep G2 over T. brucei): ~12
CN1CCN([C@@H]2CCCC[C@H]2N(C)C(=O)Cc2ccc(Cl)c(Cl)c2)CC1 — EC50 (parasite growth): 3.3 µM
OC[C@H]1O[C@@H](O[C@H]2[C@H](O)[C@@H](O)[C@H](SSCc3ccc(CSS[C@@H]4O[C@H](CO)[C@@H](O[C@@H]5O[C@H](CO)[C@H](O)[C@H](O)[C@H]5O)[C@H](O)[C@H]4O)c4ccccc34)O[C@@H]2CO)[C@H](O)[C@@H](O)[C@H]1O — viability (parasite growth, flow cytometry; 5 µM, 24 h): 91.9%
